Measurements of several laboratories.
Each line is one published result; not all experiments were run side by side.
Organism: Escherichia coli

For `CCCCCCCCCCCC(=O)C(C)C(=O)N1CCC[C@H]1C(=O)NC(C)(C)C(=O)NC(C)(C)C(=O)NC(C)(C)C(=O)N[C@](C)(CC)C(=O)NCCC(=O)N[C@@H](C)C(=O)N[C@](C)(CC)C(=O)N[C@@H](C)C(=O)N[C@@H](CC(C)C)C(=O)N[C@](C)(CC)C(=O)NCCC(=O)N[C@@H](C)C(=O)N[C@](C)(CC)C(=O)NCCC(=O)N[C@@H](C)C(=O)NC(C)(C)C(=O)NC(C)(C)C(=O)NC(C)(C)C(=O)N[C@@H](C)C(=O)N[C@@H](CC(=O)O)C(=O)O` (stereo partly shown), the MIC was > 128 µg/mL (BW25113 ΔbamB ΔtolC).
The MIC of `CCn1c(-c2ccc(-c3ccc(OC)cc3)cc2)c(-c2ccc(-c3ccc(OC)cc3)cc2)n(CC)c1=[Se]` is reported as > 40 µM (broth microdilution; carbapenem-resistant BAA-2140; 24 h).
`OB(O)c1cnn(-c2cccc(Cl)c2)c1` gave an MIC of > 2050 µg/mL (bacterial growth; AmpC-overproducing clinical isolate; without cefotaxime).
`CC[C@H](C)[C@@H]1NC(=O)CNC(=O)[C@H](CCCNC(=N)N)NC(=O)[C@H](Cc2ccc(O)cc2)NC(=O)[C@@H]2CSSC[C@H](NC1=O)C(=O)N[C@@H](Cc1ccc(O)cc1)C(=O)N[C@@H](CCCNC(=N)N)C(=O)N[C@@H](CCCNC(=N)N)C(=O)N[C@H](C(=O)N[C@@H](CCCNC(=N)N)C(=O)N[C@@H](Cc1c[nH]c3ccccc13)C(=O)N[C@@H](CCCCN)C(=O)O)CSSC[C@H](NC(=O)[C@H](Cc1c[nH]c3ccccc13)NC(=O)[C@H](Cc1c[nH]c3ccccc13)NC(=O)[C@@H](N)CCCCN)C(=O)N[C@@H](Cc1ccccc1)C(=O)N[C@@H](CCCNC(=N)N)C(=O)N[C@@H](C(C)C)C(=O)N2` gave an MIC of > 100 µM (bacterial growth, broth dilution, OD600; DH5α, LB medium; 16 h, 37 °C).
For `CCCCCCCC(=O)N[C@@H](CCN)C(=O)N[C@H](C(=O)N[C@@H](CCN)C(=O)N[C@H]1CCNC(=O)[C@H]([C@@H](C)O)NC(=O)[C@H](CCN)NC(=O)[C@H](CCN)NC(=O)[C@H](CC(C)C)NC(=O)[C@@H](Cc2ccc(F)cc2)NC(=O)[C@H](CCN)NC1=O)[C@@H](C)O`, the MIC was 2 to 4 µg/mL (broth microdilution; mcr-1, colistin-resistant).
`CC[C@H](C)[C@H](NC(=O)[C@@H](CCCNC(=N)N)NC(=O)[C@H](CCCNC(=N)N)NC(=O)[C@@H]1CCCN1C(=O)[C@@H]1CCCN1C(=O)[C@H](Cc1ccccc1)NC(=O)[C@@H]1CCCN1C(=O)[C@H](CCCNC(=N)N)NC(=O)[C@@H]1CCCN1C(=O)[C@H](CC(C)C)NC(=O)[C@H](Cc1ccc(O)cc1)NC(=O)[C@@H]1CCCN1C(=O)[C@@H]1CCCN1C(=O)[C@H](CCCCN)NC(=O)[C@H](CC(=O)O)NC(=O)[C@@H](N)C(C)C)C(=O)N[C@@H](Cc1ccc(O)cc1)C(=O)N[C@@H](CC(N)=O)C(=O)N[C@H](CCCNC(=N)N)C(N)=O` gave an MIC of 8 µg/mL (broth microdilution; MC4100; 18 h, 37 °C, 25% MHB2).
With `CC(C)c1cccc2c(-c3ccc(F)cc3)c(C(=O)O)[nH]c12` the MIC was > 2000 µM (NDM-1 producing; compound alone).
The MIC of `CC[C@H](C)[C@H](NC(=O)[C@@H](CCCNC(=N)N)NC(=O)[C@H](CCCNC(=N)N)NC(=O)[C@@H]1CCCN1C(=O)[C@@H]1CCCN1C(=O)[C@H](CCCNC(=N)N)NC(=O)[C@@H]1CCCN1C(=O)[C@H](CCCNC(=N)N)NC(=O)[C@@H]1CCCN1C(=O)[C@H](CC(C)C)NC(=O)[C@H](Cc1ccc(O)c([N+](=O)[O-])c1)NC(=O)[C@@H]1CCCN1C(=O)[C@@H]1CCCN1C(=O)[C@H](CCCCN)NC(=O)[C@H](CC(=O)O)NC(=O)[C@@H](N)C(C)C)C(=O)N[C@@H](Cc1ccc(O)cc1)C(=O)N[C@@H](CC(N)=O)C(=O)N[C@H](CCCNC(=N)N)C(N)=O` is reported as 8 µg/mL (broth microdilution; MC4100; 18 h, 37 °C, 25% MHB2).
`CC[C@H](C)[C@H](NC(=O)[C@@H](NC(=O)[C@H](CCCCN)NC(=O)[C@H](CCCCN)NC(=O)[C@@H](NC(=O)[C@H](Cc1c[nH]c2ccccc12)NC(=O)[C@H](CCCCN)NC(=O)[C@@H](NC(=O)[C@H](CC(C)C)NC(=O)[C@H](CCCCN)NC(=O)[C@H](CCCCN)NC(=O)[C@@H](N)C(C)C)[C@@H](C)CC)[C@@H](C)CC)C(C)C)C(N)=O` gave an MIC of 64 µM (24 h, 37 °C, Mueller-Hinton broth, MgCl2 1 mM).
`CC[C@H](C)[C@H](NC(=O)CNC(=O)[C@H](CCC(N)=O)NC(=O)[C@@H](NC(=O)[C@H](C)NC(=O)[C@H](CCC(N)=O)NC(=O)[C@H](C)NC(=O)[C@@H](NC(=O)[C@H](C)NC(=O)[C@H](CCCNC(=N)N)NC(=O)[C@H](Cc1ccccc1)NC(=O)[C@H](C)NC(=O)[C@H](CC(N)=O)NC(=O)[C@H](CCCCN)NC(=O)CNC(=O)[C@H](C)NC(=O)[C@H](CCCCN)NC(=O)[C@H](CCC(=O)O)NC(=O)[C@@H](NC(=O)[C@H](CCCCN)NC(=O)[C@H](CCCCN)NC(=O)CN)[C@@H](C)CC)C(C)C)C(C)C)C(=O)NCC(=O)N[C@@H](Cc1ccccc1)C(=O)N[C@@H](C)C(=O)N[C@@H](CCCNC(=N)N)C(=O)N[C@@H](C)C(=O)N[C@@H](CC(C)C)C(=O)NCC(=O)N[C@H](C(=O)N[C@@H](C)C(=O)N[C@H](C(=O)N[C@@H](CC(=O)O)C(=O)O)C(C)C)[C@@H](C)CC` has an MIC of 17.6 µg/mL (broth microdilution; K88, Mueller-Hinton broth; 37 °C).
`CC[C@H](C)[C@H](NC(=O)[C@@H](CCCNC(=N)N)NC(=O)[C@H](CCCNC(=N)N)NC(=O)[C@@H]1CCCN1C(=O)[C@@H]1CCCN1C(=O)[C@H](CCCNC(=N)N)NC(=O)[C@@H]1CCCN1C(=O)[C@H](CCCNC(=N)N)NC(=O)[C@@H]1CCCN1C(=O)[C@H](CC(C)C)NC(=O)[C@H](Cc1ccc(O)cc1)NC(=O)[C@H](Cc1ccc(O)cc1)NC(=O)[C@@H]1CCCN1C(=O)[C@H](CCCCN)NC(=O)[C@H](CC(=O)O)NC(=O)[C@@H](N)C(C)C)C(=O)N[C@@H](Cc1ccc(O)cc1)C(=O)N[C@@H](CC(N)=O)C(=O)N[C@H](CCCNC(=N)N)C(N)=O` gave an MIC of 16 µg/mL (broth microdilution; MC4100; 18 h, 37 °C, 25% MHB2).
With `C#CCO/N=C(\C(=O)N[C@@H]1C(=O)N(S(=O)(=O)O)[C@H]1C)c1csc(N)n1` the MIC was 16 µg/mL (agar dilution; CDC 1001728 NDM-1).
The MIC of `CC[C@H](C)[C@H](NC(=O)[C@@H](CCCNC(=N)N)NC(=O)[C@H](CCCNC(=N)N)NC(=O)[C@H](CC(C)C)NC(=O)[C@H](Cc1c[nH]c2ccccc12)NC(=O)[C@H](CCCNC(=N)N)NC(=O)[C@@H]1CCCN1C(=O)[C@H](CCCNC(=N)N)NC(=O)[C@@H]1CCCN1C(=O)[C@H](CC(C)C)NC(=O)[C@H](Cc1ccc(O)cc1)NC(=O)[C@@H]1CCCN1C(=O)[C@@H]1CCCN1C(=O)[C@H](CCCCN)NC(=O)[C@H](CC(=O)O)NC(=O)[C@@H](N)C(C)C)C(=O)N[C@@H](Cc1ccc(O)cc1)C(=O)N[C@@H](CC(N)=O)C(=O)N[C@H](CCCNC(=N)N)C(N)=O` is reported as 8 µg/mL (broth microdilution; ATCC 25922; 18 h, 37 °C, 25% MHB2).
The MIC of `CC(C)C[C@@H](NC(=O)[C@@H](CCCNC(=N)N)NC(=O)[C@H](N)CCCNC(=N)N)C(=O)N[C@H](CC(C)C)C(=O)N[C@H](CCCNC(=N)N)C(=O)N[C@H](CCCCN)C(=O)N[C@H](CC(C)C)C(=O)N[C@H](CCCCN)C(=O)NCC(=O)N[C@H](CCCCN)C(=O)N[C@H](CCCCN)C(=O)N[C@H](CC(C)C)C(=O)N[C@H](Cc1ccc(O)cc1)C(=O)N[C@H](CC(C)C)C(=O)N[C@H](Cc1ccc(O)cc1)C(=O)N[C@H](Cc1ccccc1)C(=O)N[C@H](CCCCN)C(=O)N[C@H](CC(C)C)C(=O)N[C@H](CCC(N)=O)C(=O)N[C@H](CC(C)C)C(=O)N[C@H](CC(C)C)C(=O)N[C@H](CCCCN)C(=O)N[C@H](CCCCN)C(N)=O` is reported as 8 µM (broth microdilution; KCTC 1682, Mueller-Hinton broth; 24 h, 37 °C).
With `COc1c(NC(=O)/C(C)=C/c2ccc(O)cc2)ccc(C(=O)N[C@@H](CC#N)C(=O)Nc2ccc(C(=O)Nc3ccc(C(=O)Nc4ccc(C(=O)O)cc4)c(O)c3OC(C)C)c(O)c2OC)c1O` the MIC was > 16 µg/mL.
`CC(C)C[C@H](NC(=O)[C@H](CCCCN)NC(=O)C1CCC=CCCC(NC(=O)[C@H](CCCCN)NC(=O)[C@@H](N)CC(C)C)C(=O)N[C@@H](CCCCN)C(=O)NC2CCC=CCCC(NC(=O)[C@H](CCCCN)NC(=O)CNC(=O)[C@H]3CCCN3C(=O)[C@H](CCCCN)NC2=O)C(=O)N[C@@H](CCCCN)C(=O)N1)C(N)=O` (stereo partly shown) gave an MIC of 64 µM (broth microdilution; ATCC 25922, Mueller-Hinton broth; 18 h, 37 °C).
With `CC[C@H](C)[C@H](NC(=O)[C@@H](CCCNC(=N)N)NC(=O)[C@H](CCCNC(=N)N)NC(=O)[C@@H]1CCCN1C(=O)[C@@H]1CCCN1C(=O)[C@H](CCCNC(=N)N)NC(=O)[C@@H]1CCCN1C(=O)[C@H](CCCNC(=N)N)NC(=O)[C@@H]1CCCN1C(=O)[C@H](CC(C)C)NC(=O)[C@H](Cc1ccc(O)cc1)NC(=O)[C@@H]1CCCN1C(=O)[C@@H]1CCCN1C(=O)[C@H](CCCCN)NC(=O)[C@H](CC(=O)O)NC(=O)[C@@H](N)C(C)C)C(=O)N[C@@H](Cc1ccc(O)c([N+](=O)[O-])c1)C(=O)N[C@@H](CC(N)=O)C(=O)N[C@H](CCCNC(=N)N)C(N)=O` the MIC was 8 µg/mL (broth microdilution; MC4100; 18 h, 37 °C, 25% MHB2).
For `CC(C)C[C@H](NC(=O)[C@@H](NC(=O)[C@H](CCCCN)NC(=O)[C@H](CCCCN)NC(=O)[C@H](CC(C)C)NC(=O)[C@H](Cc1c[nH]c2ccccc12)NC(=O)[C@H](CCCCN)NC(=O)[C@H](CC(C)C)NC(=O)[C@H](CC(C)C)NC(=O)[C@H](CCCCN)NC(=O)[C@H](CCCCN)NC(=O)[C@@H](N)C(C)C)C(C)C)C(N)=O`, the MIC was 64 µM (24 h, 37 °C, Mueller-Hinton broth, NaCl 150 mM).
`CC[C@H](C)[C@@H]1NC(=O)[C@@H]2CCCN2C(=O)[C@H](C)NC(=O)[C@H](CC(C)C)NC(=O)[C@@H]2CCCN2C(=O)[C@H](C)NC(=O)[C@@H]2CSSC[C@H](NC(=O)[C@H](C)NC(=O)[C@H](C)NC(=O)[C@H](Cc3ccc(O)cc3)NC(=O)[C@@H]3CCCN3C(=O)CNC(=O)[C@H](Cc3c[nH]c4ccccc34)NC1=O)C(=O)N[C@@H](CC(C)C)C(=O)N[C@@H](CO)C(=O)N[C@@H](C)C(=O)N[C@H]1CSSC[C@H](NC(=O)[C@H](C(C)C)NC(=O)[C@@H]3CCCN3C(=O)CNC(=O)CNC(=O)CNC(=O)[C@H](C)NC(=O)[C@H](C)NC(=O)[C@H](CC(C)C)NC1=O)C(=O)N[C@@H](CC(C)C)C(=O)N[C@@H](C)C(=O)N[C@@H](C(C)C)C(=O)N2` has an MIC of > 128 µg/mL (ATCC 25922).

Excerpt of the above:
`CC(C)C[C@H](NC(=O)[C@H](CCCCN)NC(=O)C1CCC=CCCC(NC(=O)[C@H](CCCCN)NC(=O)[C@@H](N)CC(C)C)C(=O)N[C@@H](CCCCN)C(=O)NC2CCC=CCCC(NC(=O)[C@H](CCCCN)NC(=O)CNC(=O)[C@H]3CCCN3C(=O)[C@H](CCCCN)NC2=O)C(=O)N[C@@H](CCCCN)C(=O)N1)C(N)=O` (stereo partly shown) gave an MIC of 64 µM (broth microdilution; ATCC 25922, Mueller-Hinton broth; 18 h, 37 °C).
`OB(O)c1cnn(-c2cccc(Cl)c2)c1` gave an MIC of > 2050 µg/mL (bacterial growth; AmpC-overproducing clinical isolate; without cefotaxime).
